Results of several laboratories.
Compare with care: the assays were run in different laboratories. “And” joins repeats or separate records; there may be more than shown. ± gives the spread as reported.

`O=C(c1ccc(C2CCCCC2)cc1)N1CCCC1` gave a hepatic clearance of 52 mL/min/kg (liver microsome stability; rat liver microsomes; 1 µM).
With `N=C(N)NCCC[C@@H]1NC(=O)[C@H](CCCNC(=N)N)NC(=O)[C@H](CCCNC(=N)N)NC(=O)[C@@H](CCCNC(=N)N)NC(=O)[C@H](Cc2ccc3ccccc3c2)NC(=O)[C@H](Cc2ccc3ccccc3c2)NC(=O)[C@H](Cc2ccc3ccccc3c2)NC1=O` the viability was 61 to 70% (MRC5; cell growth or viability, MTS; 150 µg/mL, 24 h).
For `CC(C)C[C@@H]1NC(=O)[C@H](CO)NC(=O)[C@H](CC(=O)O)NC(=O)[C@@H]2CCCN2C(=O)[C@H]2CCCN2C(=O)[C@H](C(C)C)NC(=O)[C@H](CC(=O)O)NC(=O)[C@H](CC(N)=O)NC(=O)[C@H](CCCNC(=N)N)NC(=O)[C@H]([C@@H](C)O)NC(=O)[C@H](C(C)C)NC(=O)CCNC(=O)CCNC(=O)[C@H](Cc2ccccc2)NC(=O)[C@H](C(C)C)NC(=O)[C@H](CC(C)C)NC1=O`, concentration read “not detected” (HEK-293T; subcellular fractionation LC-MS; nuclear fraction; 20 µM, 24 h).
With `O=C(NCc1ccncc1)c1cc(-c2ccccc2)n(-c2ccccc2)n1` the CC50 was over 50 µM (HeLa; cell growth or viability).
Under cytotoxicity, `O=C(O)/C=C\C(=O)NCCCOCCOCCOCCCNC(=O)/C=C\C(=O)O` is recorded as “not toxic” (HaCaT; MTT; up to 1000 ppm, 24 h).
`NC(=O)c1cccc(NC(=O)c2cc(-c3ccc(Br)cc3)n(-c3ccccc3)n2)c1` gave a CC50 of over 50 µM (HeLa; cell growth or viability).
For `CN1CCCNC(=O)c2cccc(c2)C(=O)NCCCN(C)CCCNc2cccc3c2C(=O)c2cccc(c2C3=O)NCCC1`, the viability was 103% (HeLa; cell growth or viability, CCK-8; 1 nM, 48 h).
The CC50 of `O=C(Nc1cccc(N2CCNCC2)c1)c1cc(-c2ccccc2)n(-c2ccccc2)n1` is reported as 16 µM (HeLa; cell growth or viability).
For `OB(O)c1sccc1/C=N/OCc1ccccc1`, the IC50 was over 100 µM (HEK-293T; cell growth or viability, MTT; 48 h).
With `Cc1cc(=O)c2c(O)c3c(O[C@@H]4O[C@H](CO)[C@@H](O)[C@H](O)[C@H]4O)cc(O)cc3cc2o1` the cell viability was 102 ± 13.7% (HepaRG co-cultured with HK-2; MTT; 16.67 µM, 24 h; relative to: untreated control).
`O=C1NC2(CC2)COc2ncc(F)cc2[C@H]2COCCN2c2ccn3ncc1c3n2` has a numerical aberrations of 0% (CHL; 150 µg/mL, 4 h, with rat liver S9).
With `COc1cc(/C=C/C=C2\SC(=S)NC2=O)ccc1O` the viability was 0.976 and 1 (HEK-293T; CellTiter-Glo; 1.25 µM, 24 h, unit not given; relative to: untreated).
`CC(=O)N[C@H](C(=O)N[C@H](C(=O)N[C@@H](CCCNC(=N)N)C(=O)N[C@@H](CC(N)=O)C(=O)N[C@@H](CC(=O)O)C(=O)N[C@H](C(=O)N1CCC[C@@H]1C(=O)N1CCC[C@H]1C(=O)N[C@@H](CC(=O)O)C(=O)N[C@@H](CO)C(=O)N[C@@H](CC(C)C)C(=O)N[C@@H](CC(C)C)C(=O)N[C@H](C(=O)N[C@@H](Cc1ccccc1)C(N)=O)C(C)C)C(C)C)[C@@H](C)O)C(C)C` — result for “peptide amount per protein”: “not detected” (HEK-293T; subcellular fractionation LC-MS; cytoplasmic fraction; 20 µM, 24 h).
The CC50 of `O=C(NC(c1ccccn1)c1ccccn1)c1cc(-c2ccccc2)n(-c2ccccc2)n1` is reported as over 50 µM (HeLa; cell growth or viability).
`C=C(C)C(C)(C)CCC(C)C1CCC2(C)C3CCC4C(C)C(O)CCC45CC35CCC12C` (centres unmarked) gave an IC50 of over 200 µM (HaCaT; cytotoxicity, MTT; 48 h, 10% FBS).
The cytotoxicity of `NC[C@H]1O[C@H](O[C@H]2[C@H](O)[C@@H](O[C@H]3O[C@H](Cn4cc(CNC(=S)Nc5ccc6c(c5)C(=O)OC65c6ccc(O)cc6Oc6cc(O)ccc65)nn4)[C@@H](O)[C@H](N)[C@H]3O)[C@H](N)C[C@@H]2N)[C@H](O)[C@@H](O)[C@@H]1O` is reported as 5 ± 0.8% (MCF7; 5 µM, 24 h).
With `Cc1c(C(=O)N[C@H](C(=O)Nc2cccc(C(N)=O)c2)c2ccc(OCc3ccccc3)cc2)cnn1-c1ccccc1` the CC50 was over 50 µM (HeLa; cell growth or viability).
`Cc1cc(C)nc(NC(=S)N2CCN(c3ccncc3)CC2)c1` has an EC50 of over 100 µM (SK-MEL-2; cell viability, CellTiter-Glo; 4 days).
The IC50 of `O=C(OCc1ccc(O[C@@H]2O[C@H](CO)[C@@H](O)[C@H](O)[C@H]2O)cc1)c1ccc(O)cc1` is reported as over 200 µM (HaCaT; cytotoxicity, MTT; 48 h, 10% FBS).
`Cc1ccc(-n2nc(C(N)=O)cc2-c2ccc(CC(C)C)cc2)cc1` gave a CC50 of 34 µM (HeLa; cell growth or viability).
`CCNc1cc2c(cc1C)C1(c3cc(C)c(NCC)cc3O2)c2ccccc2C(=O)N1N=Cc1c[c-]c(-c2ccccn2)cc1.Cc1c(C)c(-c2ccc(-c3ccccc3)cc2)[c-](C)c1C.[Cl-].[Ir+3]` gave a viable cells of 2.59 ± 0.29% (A549; annexin V/PI flow cytometry; 3.0×IC50, 24 h).
`NC(=O)c1cccc(NC(=O)c2cc(-c3ccccc3)nn2-c2ccccc2)c1` gave a CC50 of over 50 µM (HeLa; cell growth or viability).
For `CNC(=O)c1ccc(C2CCCCC2)cc1`, the hepatic clearance was 30 mL/min/kg (liver microsome stability; dog liver microsomes; 1 µM).

Excerpt of the above:
For `CNC(=O)c1ccc(C2CCCCC2)cc1`, the hepatic clearance was 30 mL/min/kg (liver microsome stability; dog liver microsomes; 1 µM).
